# Experimental data pooled from the literature.
# Each line is one published result; not all experiments were run side by side. Several values in a cell are separate wells, animals, samples, runs or records. ± marks the error that the study gave.
# Chain of UniProt Q53HV7 (whole entry, looked up): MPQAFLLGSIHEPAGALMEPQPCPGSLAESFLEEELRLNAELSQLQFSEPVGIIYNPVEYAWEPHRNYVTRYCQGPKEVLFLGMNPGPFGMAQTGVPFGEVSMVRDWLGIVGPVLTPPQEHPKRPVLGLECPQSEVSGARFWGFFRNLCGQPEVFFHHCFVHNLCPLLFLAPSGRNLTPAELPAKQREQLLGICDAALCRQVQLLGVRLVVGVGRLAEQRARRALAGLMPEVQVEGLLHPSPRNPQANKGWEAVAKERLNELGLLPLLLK
# Chain of UniProt P19490 (whole entry, looked up): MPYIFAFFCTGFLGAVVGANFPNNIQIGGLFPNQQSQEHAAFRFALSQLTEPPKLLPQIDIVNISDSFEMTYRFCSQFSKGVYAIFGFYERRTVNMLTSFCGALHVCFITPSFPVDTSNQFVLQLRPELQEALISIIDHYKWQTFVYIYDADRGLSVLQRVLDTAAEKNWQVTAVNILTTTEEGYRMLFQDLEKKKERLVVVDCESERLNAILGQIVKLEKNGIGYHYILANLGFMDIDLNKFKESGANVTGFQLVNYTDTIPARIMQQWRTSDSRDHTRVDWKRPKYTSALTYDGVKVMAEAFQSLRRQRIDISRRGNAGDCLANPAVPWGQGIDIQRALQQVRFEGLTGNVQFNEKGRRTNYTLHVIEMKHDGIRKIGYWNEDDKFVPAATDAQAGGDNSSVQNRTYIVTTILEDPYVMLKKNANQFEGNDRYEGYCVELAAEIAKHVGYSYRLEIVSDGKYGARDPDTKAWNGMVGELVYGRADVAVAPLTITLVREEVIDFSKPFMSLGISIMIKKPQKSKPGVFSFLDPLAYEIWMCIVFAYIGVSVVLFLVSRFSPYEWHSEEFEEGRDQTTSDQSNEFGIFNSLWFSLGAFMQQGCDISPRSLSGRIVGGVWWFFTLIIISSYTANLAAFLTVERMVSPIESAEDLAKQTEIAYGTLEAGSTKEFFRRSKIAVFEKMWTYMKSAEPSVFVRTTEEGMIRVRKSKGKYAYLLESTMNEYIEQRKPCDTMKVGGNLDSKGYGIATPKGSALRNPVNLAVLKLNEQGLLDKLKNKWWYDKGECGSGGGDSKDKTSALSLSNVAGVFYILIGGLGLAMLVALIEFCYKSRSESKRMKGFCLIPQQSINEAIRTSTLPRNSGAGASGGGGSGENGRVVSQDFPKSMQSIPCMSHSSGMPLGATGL
# Chain of UniProt P00519 (whole entry, unmodified, looked up): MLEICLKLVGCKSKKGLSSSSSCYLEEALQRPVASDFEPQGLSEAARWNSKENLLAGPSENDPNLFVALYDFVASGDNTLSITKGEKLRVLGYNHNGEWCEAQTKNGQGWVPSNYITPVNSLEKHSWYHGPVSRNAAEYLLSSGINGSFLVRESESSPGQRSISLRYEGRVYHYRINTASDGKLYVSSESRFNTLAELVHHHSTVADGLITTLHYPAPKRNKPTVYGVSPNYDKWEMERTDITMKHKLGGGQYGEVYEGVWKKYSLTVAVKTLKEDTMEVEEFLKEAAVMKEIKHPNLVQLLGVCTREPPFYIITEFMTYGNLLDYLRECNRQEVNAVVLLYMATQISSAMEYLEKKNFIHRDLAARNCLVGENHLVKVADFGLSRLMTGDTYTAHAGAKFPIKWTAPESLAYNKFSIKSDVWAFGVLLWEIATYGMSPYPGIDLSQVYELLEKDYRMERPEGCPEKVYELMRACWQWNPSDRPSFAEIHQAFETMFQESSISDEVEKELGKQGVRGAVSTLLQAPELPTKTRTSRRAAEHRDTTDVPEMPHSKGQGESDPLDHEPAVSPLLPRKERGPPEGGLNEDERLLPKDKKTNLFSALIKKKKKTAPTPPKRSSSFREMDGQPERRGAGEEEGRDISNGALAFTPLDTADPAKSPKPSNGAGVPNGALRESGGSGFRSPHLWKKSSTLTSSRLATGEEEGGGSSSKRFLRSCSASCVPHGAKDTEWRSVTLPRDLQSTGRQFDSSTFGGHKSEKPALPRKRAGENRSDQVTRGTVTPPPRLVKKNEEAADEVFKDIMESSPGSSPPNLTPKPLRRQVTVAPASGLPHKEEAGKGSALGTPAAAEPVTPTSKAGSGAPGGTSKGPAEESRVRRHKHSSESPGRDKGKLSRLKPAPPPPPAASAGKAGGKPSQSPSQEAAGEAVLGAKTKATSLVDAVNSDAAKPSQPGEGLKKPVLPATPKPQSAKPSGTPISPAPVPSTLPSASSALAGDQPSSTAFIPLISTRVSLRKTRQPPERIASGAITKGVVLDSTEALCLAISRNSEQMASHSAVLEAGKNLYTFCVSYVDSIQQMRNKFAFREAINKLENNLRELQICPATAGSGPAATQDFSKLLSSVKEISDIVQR
# Chain of UniProt Q02156 (whole entry, looked up): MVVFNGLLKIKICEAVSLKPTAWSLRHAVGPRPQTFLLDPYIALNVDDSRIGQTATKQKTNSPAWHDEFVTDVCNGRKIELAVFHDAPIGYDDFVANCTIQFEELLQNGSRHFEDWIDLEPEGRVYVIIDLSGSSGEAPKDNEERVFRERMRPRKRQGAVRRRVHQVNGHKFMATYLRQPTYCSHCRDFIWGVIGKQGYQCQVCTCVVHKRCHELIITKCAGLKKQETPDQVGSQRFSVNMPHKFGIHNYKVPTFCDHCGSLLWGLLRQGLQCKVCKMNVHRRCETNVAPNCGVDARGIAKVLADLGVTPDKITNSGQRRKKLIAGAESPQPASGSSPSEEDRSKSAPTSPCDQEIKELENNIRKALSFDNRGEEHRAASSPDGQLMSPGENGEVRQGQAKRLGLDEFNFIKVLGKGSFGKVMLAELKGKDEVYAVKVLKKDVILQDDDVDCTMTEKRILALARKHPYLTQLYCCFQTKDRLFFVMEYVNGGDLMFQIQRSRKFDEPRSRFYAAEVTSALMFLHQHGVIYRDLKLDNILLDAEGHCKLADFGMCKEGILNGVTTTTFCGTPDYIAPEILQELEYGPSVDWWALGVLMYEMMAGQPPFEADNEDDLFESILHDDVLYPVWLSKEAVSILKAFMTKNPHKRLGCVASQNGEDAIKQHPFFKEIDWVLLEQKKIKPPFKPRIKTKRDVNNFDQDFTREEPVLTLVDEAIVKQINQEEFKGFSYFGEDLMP
# Chain of UniProt P04062 (whole entry, unmodified, looked up): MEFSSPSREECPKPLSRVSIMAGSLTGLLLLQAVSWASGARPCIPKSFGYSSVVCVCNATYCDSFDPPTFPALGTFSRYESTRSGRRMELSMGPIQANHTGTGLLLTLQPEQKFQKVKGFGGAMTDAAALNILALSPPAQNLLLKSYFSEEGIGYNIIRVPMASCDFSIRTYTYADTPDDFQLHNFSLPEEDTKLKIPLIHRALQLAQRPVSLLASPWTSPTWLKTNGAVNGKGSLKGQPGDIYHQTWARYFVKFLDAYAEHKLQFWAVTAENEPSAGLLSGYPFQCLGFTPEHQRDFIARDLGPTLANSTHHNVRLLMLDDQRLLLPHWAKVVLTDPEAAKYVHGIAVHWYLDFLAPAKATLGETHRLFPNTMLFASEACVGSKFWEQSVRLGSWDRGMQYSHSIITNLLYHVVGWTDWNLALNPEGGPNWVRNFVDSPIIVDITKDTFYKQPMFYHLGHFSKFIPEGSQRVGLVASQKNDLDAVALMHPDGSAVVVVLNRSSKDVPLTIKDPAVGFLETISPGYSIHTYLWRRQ
# Chain of UniProt P41252 (whole entry, looked up): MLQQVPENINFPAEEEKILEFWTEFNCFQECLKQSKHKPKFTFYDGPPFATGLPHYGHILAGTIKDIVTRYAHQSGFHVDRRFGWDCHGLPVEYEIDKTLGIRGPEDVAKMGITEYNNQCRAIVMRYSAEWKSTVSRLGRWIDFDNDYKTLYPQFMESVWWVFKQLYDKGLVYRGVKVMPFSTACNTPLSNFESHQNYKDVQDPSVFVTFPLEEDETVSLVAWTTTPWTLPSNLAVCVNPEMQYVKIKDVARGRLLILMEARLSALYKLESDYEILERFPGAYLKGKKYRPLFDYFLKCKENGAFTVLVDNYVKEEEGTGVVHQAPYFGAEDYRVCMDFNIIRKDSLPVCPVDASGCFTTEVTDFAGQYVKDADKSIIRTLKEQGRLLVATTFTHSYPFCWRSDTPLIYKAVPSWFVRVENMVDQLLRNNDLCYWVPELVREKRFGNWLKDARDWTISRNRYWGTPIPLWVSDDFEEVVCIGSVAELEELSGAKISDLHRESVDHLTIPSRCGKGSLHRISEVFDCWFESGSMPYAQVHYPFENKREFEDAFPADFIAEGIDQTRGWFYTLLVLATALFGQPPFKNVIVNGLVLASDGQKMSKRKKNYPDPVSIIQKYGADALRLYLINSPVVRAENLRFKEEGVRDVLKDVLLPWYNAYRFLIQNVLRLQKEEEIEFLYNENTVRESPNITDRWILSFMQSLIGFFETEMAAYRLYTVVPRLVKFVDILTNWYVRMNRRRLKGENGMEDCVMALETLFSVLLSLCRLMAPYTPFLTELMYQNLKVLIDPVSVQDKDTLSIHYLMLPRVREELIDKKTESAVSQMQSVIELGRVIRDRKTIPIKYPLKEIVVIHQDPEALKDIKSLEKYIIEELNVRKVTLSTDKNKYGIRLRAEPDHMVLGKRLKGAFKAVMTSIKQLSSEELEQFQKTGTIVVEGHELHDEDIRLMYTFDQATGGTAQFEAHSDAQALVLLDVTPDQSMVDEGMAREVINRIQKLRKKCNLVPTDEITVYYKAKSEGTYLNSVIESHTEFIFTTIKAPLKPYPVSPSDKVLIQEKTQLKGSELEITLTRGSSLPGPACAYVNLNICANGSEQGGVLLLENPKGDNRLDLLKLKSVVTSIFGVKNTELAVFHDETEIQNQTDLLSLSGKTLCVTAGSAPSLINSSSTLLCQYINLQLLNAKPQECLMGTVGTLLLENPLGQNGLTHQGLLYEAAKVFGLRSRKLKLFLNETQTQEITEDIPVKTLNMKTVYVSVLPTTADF
Structure (SMILES),target or system,test,system,conditions,how to read,quantity,result
O=C(CNc1cccc2ccccc12)N/N=C/c1ccc([N+](=O)[O-])o1,Trypanosoma cruzi,"reporter mRNA translation, inhibitor, refers to: capped polyadenylated Renilla luciferase mRNA",cell-free extract,concentration not given,relative to: positive over negative control,translation activity,86.3% and 103% and 78.5% and 85.9%
COC1CN([C@H]2CC[C@H]([C@@]3(C)Oc4c(Cl)cc(C(=O)NCc5c(SC)cc(C)[nH]c5=O)c(C)c4O3)CC2)C1,,"RNA-seq, refers to: APBB2","human, whole blood","dose not given, 24 h",relative to: pretreatment baseline,log2 fold change,2.22
O=C(CCCCCN1C[C@H](O)[C@@H](O)[C@H](O)[C@@H]1CO)NC12CC3CC(CC(C3)C1)C2,"GBA1 (Homo sapiens, UniProt P04062, R534H)","inhibitor, 4MU-β-D-glucopyranoside",,together with: 4MU-β-D-glucopyranoside,,IC50,40 µM
CCC(=O)N(CC#N)S(=O)(=O)c1ccc(C)cc1,,"reaction with N-acetyl-lysine, HPLC-MS",,"pH 10.2, together with: N-α-acetyl-lysine",,pseudo-first-order rate constant,35.3 h⁻¹
Cc1cc(NC(=O)C23CC4CC(C2)CC(n2cnc([N+](=O)[O-])n2)(C4)C3)no1,Trypanosoma cruzi,"reporter mRNA translation, inhibitor, refers to: Renilla luciferase mRNA",cell-free extract,"concentration not given, test 2",relative to: positive over negative control,translation activity,112% and 120%
Cc1nn(-c2cccc(N)c2)c(=O)c2cnc(Nc3ccc(N4CCNCC4)cc3)nc12,"PRKCE (Homo sapiens, UniProt Q02156)","kinase activity, inhibitor, SelectScreen kinase profiling",,,,IC50,> 10 µM
O=C(O)C[C@H]1C[C@H](O)CN1 (relative stereo),"Sodium- and chloride-dependent glycine transporter 2 (Homo sapiens, UniProt Q9Y345)",MS binding competition,,10 µM,,remaining specific binding,104 ± 6.5%
CCCCCCCCCCCCCCCc1cccc(OCC)c1C(=O)Nc1ccc(Cl)c(C(F)(F)F)c1,"KAT5 (Homo sapiens, UniProt Q92993)",SPR,,1.85 µM,higher = more binding,SPR binding response,0.163 RU
Cc1onc(-c2ccccc2)c1-c1ccc(S(=O)(=O)Cl)cc1,,"reaction with N-acetyl-lysine, HPLC-MS",,"pH 10.2, together with: N-α-acetyl-lysine",,pseudo-first-order rate constant,1.7 h⁻¹
CCCC[C@H](NC(=O)CCCCCCCNC(=O)CN1CCN(CC(=O)O)CCN(CC(=O)O)CC1)C(=O)N[C@H]1CC(=O)NCCCC[C@@H](C(N)=O)NC(=O)[C@H](Cc2c[nH]c3ccccc23)NC(=O)[C@H](CCCNC(=N)N)NC(=O)[C@@H](Cc2ccccc2)NC(=O)[C@H](Cc2c[nH]cn2)NC1=O [technetium-99m labelled],,,"C57 mouse, liver","intravenous, 0.037 MBq, 4 h",,tissue uptake,0.17 ± 0.03 %ID/g
COc1cc(CN(C)CCc2ccccc2)ccc1OCc1ccccc1,Trypanosoma cruzi,"reporter mRNA translation, inhibitor, refers to: Renilla luciferase mRNA",cell-free extract,"concentration not given, test 1",relative to: positive over negative control,translation activity,108% and 110%
CCCC[C@@H]1NC(=O)[C@@H](CC(C)C)NC(=O)[C@H](CCCCNC(=O)CN2CCN(CC(=O)O)CCN(CC(=O)O)CC2)NC(=O)NNC(=O)[C@H](Cc2c[nH]cn2)NC(=O)[C@@H](Cc2c[nH]c3ccccc23)NC1=O [copper-64 labelled],,,"Balb/c mice, liver","intravenous, dose not given",,tissue uptake,5.85 ± 1.33 %ID/g
COC(=O)Cc1cc2c(cc1C(=O)c1ccc(Cl)cc1Cl)OCO2,"Glutamate receptor AMPA 1/2 (Gria1/Gria2, Rattus norvegicus, UniProt P19490+P19491)","glutamate-evoked current, whole-cell patch clamp",HEK-293T,"concentration not given, glutamate alone after washout, together with: glutamate",,current amplitude after recovery,539 ± 38 pA
O=Cc1cc(OCc2ccccc2)ccc1B(O)O,,"reaction with N-acetyl-lysine, HPLC-MS",,"pH 10.2, together with: N-α-acetyl-lysine",,pseudo-first-order rate constant,0 h⁻¹
CCCCCC(O)/C=C/C=O (stereo not drawn),"Isoleucine--tRNA ligase, cytoplasmic (Homo sapiens, UniProt P41252)","competitive isoTOP-ABPP, refers to: IARS cysteine peptide","proteome, soluble, MDA-MB-231","100 µM, together with: iodoacetamide probe","relative to: DMSO over compound-treated, higher = stronger cysteine blockade",isoTOP-ABPP competition ratio,1.7
C=CC(=O)N1CCCC(n2c(=O)c3ncccc3n(Cc3ccc(Oc4ccccc4)cc3)c2=O)C1 (stereo not drawn),"Tyrosine-protein kinase ABL1, non-phosphorylated (ABL1, Homo sapiens, UniProt P00519, Q252H)","cell-free assay, competition with immobilised ligand",,1 µM,,remaining binding,95%
CC(C)C[C@H](NC(=O)[C@H](Cc1ccc(O)cc1)NC(=O)[C@@H](CCCNC(=N)N)NC(=O)[C@@H](CO)NC(=O)[C@H](Cc1ccccc1)NC(=O)[C@H](CC1CCCCC1)NC(=O)[C@H](CC(=O)O)NC(=O)CN1CCN(CC(=O)O)CCN(CC(=O)O)CCN(CC(=O)O)CC1)C(=O)N[C@@H](Cc1c[nH]c2ccccc12)C(=O)N[C@@H](CO)C(=O)O [copper-64 labelled],,,"human, thyroid","concentration not given, 1 h",,activity concentration,3190 Bq/mL and 4570 Bq/mL and 3040 Bq/mL and 2570 Bq/mL and 1980 Bq/mL and 3230 Bq/mL
Cc1ccc(NC(=O)CCC(=O)N/N=C/c2ccc([N+](=O)[O-])o2)cc1C,Trypanosoma cruzi,"reporter mRNA translation, inhibitor, refers to: Renilla luciferase mRNA",cell-free extract,"concentration not given, test 1",relative to: positive over negative control,translation activity,105% and 99%
CCCC[C@@H]1NC(=O)[C@@H](CC(C)C)NC(=O)[C@H](CCCCNC(=O)CN2CCN(CC(=O)O)CCN(CC(=O)O)CC2)NC(=O)[C@@H](CO)NC(=O)[C@H](Cc2c[nH]cn2)NC(=O)[C@@H](Cc2c[nH]c3ccccc23)NC1=O [copper-64 labelled],,,"Balb/c mice, liver","intravenous, dose not given",,tissue uptake,21.6 ± 0.65 %ID/g
O=Cn1nnc2ccccc21,,"reaction with N-acetyl-lysine, HPLC-MS",,"pH 10.2, together with: N-α-acetyl-lysine",,pseudo-first-order rate constant,0 h⁻¹
COc1cc2nc(Cl)nc(Nc3ccc(Oc4ccccc4)cc3)c2cc1OC,"SMUG1 (Homo sapiens, UniProt Q53HV7)","enzyme activity, activator, fluorescence",,20 µM,relative to: control,activity,1700 ± 900%
